Assay results of several laboratories.
Each numbered part is a random draw from the data of one study; scales do not carry over between parts.
Sequence of UniProt Q8N568 (whole entry, looked up): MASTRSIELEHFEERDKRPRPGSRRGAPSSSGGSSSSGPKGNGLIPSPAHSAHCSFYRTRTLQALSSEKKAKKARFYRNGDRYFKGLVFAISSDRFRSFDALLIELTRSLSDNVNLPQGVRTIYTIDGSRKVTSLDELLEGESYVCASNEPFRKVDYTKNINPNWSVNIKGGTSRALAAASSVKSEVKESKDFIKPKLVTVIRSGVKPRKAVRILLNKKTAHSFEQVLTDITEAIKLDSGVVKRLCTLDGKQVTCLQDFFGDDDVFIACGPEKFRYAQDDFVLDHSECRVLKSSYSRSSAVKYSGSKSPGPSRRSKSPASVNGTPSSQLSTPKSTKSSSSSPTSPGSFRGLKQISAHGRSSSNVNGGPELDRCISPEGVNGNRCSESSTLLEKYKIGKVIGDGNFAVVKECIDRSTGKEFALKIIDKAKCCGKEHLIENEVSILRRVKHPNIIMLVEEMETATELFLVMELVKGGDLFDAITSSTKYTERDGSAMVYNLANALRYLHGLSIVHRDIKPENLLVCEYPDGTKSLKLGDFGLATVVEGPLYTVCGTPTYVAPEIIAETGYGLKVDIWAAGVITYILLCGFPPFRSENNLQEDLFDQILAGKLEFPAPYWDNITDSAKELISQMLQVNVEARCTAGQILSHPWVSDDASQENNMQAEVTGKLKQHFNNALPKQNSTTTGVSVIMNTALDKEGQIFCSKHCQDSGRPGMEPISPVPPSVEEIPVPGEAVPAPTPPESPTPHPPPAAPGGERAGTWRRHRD
Sequence of UniProt Q00535 (whole entry, looked up): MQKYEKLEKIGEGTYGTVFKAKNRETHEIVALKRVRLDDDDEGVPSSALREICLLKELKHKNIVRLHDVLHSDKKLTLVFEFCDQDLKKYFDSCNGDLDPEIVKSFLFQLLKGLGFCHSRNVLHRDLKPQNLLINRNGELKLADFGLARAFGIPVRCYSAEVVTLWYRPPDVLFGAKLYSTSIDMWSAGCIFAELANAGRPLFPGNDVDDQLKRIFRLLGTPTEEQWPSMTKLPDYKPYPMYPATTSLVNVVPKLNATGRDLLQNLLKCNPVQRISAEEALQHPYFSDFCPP
Sequence of UniProt P53778 (whole entry, looked up): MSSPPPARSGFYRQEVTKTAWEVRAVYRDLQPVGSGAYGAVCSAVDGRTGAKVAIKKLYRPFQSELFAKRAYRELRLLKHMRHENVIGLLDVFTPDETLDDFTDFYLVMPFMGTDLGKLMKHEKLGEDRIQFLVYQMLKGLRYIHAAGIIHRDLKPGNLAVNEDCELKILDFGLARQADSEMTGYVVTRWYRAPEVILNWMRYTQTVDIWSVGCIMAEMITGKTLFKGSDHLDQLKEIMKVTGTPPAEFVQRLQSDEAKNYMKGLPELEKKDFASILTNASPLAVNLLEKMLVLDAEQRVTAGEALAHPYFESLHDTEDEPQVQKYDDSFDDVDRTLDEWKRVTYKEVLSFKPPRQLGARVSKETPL
Sequence of UniProt Q15759 (whole entry, looked up): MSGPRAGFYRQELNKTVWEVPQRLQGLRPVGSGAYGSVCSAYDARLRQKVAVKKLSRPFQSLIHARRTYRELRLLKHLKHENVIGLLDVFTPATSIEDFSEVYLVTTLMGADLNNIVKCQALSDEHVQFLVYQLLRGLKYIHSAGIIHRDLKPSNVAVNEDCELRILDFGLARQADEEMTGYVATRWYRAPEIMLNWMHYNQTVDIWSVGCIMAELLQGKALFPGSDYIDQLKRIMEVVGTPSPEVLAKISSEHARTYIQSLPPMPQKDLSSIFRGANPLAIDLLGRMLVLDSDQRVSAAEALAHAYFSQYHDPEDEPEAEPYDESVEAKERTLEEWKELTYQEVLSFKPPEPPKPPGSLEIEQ
Sequence of UniProt Q8WXR4 (whole entry, looked up): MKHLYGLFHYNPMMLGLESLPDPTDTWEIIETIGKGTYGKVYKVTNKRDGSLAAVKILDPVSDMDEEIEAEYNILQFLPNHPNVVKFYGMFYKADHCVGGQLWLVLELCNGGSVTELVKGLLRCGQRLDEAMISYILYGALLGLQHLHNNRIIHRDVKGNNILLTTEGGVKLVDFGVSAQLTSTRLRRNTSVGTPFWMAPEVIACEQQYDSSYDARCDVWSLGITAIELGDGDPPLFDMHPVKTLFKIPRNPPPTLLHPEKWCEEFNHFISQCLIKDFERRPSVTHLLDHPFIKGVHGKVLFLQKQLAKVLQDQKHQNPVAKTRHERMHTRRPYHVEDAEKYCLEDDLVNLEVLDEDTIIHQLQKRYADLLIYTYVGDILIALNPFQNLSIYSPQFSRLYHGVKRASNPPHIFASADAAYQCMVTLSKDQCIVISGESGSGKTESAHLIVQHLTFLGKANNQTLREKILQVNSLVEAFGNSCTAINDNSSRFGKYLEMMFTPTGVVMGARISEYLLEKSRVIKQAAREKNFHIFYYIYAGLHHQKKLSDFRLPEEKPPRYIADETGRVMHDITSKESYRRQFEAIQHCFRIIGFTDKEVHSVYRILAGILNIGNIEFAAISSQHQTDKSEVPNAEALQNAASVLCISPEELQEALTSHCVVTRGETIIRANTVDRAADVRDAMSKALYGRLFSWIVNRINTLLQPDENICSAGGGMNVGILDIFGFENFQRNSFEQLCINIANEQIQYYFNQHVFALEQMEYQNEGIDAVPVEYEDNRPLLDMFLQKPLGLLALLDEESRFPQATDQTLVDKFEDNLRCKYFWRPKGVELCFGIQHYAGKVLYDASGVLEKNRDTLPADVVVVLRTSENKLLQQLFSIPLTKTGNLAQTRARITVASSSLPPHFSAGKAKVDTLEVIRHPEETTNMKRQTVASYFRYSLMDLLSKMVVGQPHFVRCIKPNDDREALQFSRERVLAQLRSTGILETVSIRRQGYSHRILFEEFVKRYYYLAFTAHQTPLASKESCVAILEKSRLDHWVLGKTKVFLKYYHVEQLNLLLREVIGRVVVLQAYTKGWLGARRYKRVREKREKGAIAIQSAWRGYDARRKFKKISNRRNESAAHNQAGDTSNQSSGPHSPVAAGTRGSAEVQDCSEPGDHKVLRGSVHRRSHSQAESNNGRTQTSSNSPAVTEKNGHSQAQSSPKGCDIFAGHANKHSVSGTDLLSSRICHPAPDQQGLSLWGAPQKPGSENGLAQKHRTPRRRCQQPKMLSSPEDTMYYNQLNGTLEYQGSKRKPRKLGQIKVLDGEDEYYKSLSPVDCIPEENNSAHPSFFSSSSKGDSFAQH
Sequence of UniProt Q02750 (whole entry, looked up): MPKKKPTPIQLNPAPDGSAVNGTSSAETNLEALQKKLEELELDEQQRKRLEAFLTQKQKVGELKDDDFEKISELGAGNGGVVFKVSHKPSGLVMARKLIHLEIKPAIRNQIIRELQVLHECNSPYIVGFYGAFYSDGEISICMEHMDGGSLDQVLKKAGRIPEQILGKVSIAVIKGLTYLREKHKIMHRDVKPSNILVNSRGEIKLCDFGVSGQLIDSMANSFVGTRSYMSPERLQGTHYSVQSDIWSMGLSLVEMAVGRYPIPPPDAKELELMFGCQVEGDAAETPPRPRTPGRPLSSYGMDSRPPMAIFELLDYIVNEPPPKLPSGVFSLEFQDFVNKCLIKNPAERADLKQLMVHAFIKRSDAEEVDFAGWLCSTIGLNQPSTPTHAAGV
Sequence of UniProt P49761 (whole entry, looked up): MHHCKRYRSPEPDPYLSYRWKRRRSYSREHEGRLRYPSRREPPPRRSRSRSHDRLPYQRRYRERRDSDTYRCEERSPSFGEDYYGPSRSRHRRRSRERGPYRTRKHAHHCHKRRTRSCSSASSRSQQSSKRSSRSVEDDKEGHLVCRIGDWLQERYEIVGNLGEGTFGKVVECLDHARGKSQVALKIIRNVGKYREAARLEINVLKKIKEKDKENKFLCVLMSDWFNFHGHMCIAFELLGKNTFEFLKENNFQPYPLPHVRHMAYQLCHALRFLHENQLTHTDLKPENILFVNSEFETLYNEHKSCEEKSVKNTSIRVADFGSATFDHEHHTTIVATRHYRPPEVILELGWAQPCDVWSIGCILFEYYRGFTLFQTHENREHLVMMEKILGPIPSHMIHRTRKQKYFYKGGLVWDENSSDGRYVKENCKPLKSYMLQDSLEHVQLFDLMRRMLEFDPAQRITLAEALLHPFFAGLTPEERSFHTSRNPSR
Sequence of UniProt P28482 (whole entry, looked up): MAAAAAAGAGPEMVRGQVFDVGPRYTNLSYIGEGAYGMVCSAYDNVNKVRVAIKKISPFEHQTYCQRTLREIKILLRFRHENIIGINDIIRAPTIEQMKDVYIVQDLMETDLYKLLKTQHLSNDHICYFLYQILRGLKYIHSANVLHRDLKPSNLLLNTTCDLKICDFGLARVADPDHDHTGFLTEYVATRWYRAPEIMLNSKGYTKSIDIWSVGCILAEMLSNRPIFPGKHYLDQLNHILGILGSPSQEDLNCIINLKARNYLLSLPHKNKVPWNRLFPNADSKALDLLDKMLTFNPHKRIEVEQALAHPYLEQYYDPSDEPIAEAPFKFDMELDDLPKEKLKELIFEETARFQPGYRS

Set 1 — method: phase 2a clinical trial
SMILES: CC(C)n1cnc(-c2ccc(F)cc2)c1-c1ncc(C(=O)Nc2ccc(N3CCN(C)CC3)cc2)[nH]1
Species: patients with idiopathic pulmonary fibrosis
| refers to | dose | notes | patients with treatment-emergent adverse events [%] |
| --- | --- | --- | --- |
| electrocardiogram high voltage | dose not given | Grade 4, all drug arms total | 0 |
| left bundle branch block | 60 mg once daily | Grade 4 | 0 |
| first degree atrioventricular block | 60 mg once daily | Grade 5 | 0 |
| investigations (SOC) | 60 mg once daily | Grade 5 | 0 |
| left ventricular dysfunction | 30 mg once daily | Grade 5 | 0 |
| protein urine present | 60 mg once daily | Grade 5 | 0 |
| interstitial lung disease | 30 mg once daily | Grade 4 | 0 |
| left bundle branch block | dose not given | Grade 2, all drug arms | 0 |

Set 2 — method: competition with immobilised ligand; concentration: 1 µM
SMILES: O=C(O)[C@@H]1[C@@H](Cn2nnc3ccccc3c2=O)CC[C@H]1C(=O)c1ccc(OCCC2CCOCC2)cc1
| target | observed | remaining binding [%] |
| --- | --- | --- |
| CLK2 (Homo sapiens, UniProt P49760) | cell-free assay | 100 |
| DCLK2 (Homo sapiens, UniProt Q8N568) | cell-free assay | 87 |
| EGFR (Homo sapiens, UniProt P00533, del747-750/T751S) | cell-free assay | 58 |
| RIPK4 (Homo sapiens, UniProt P57078) | cell-free assay | 81 |
| IRAK3 (Homo sapiens, UniProt Q9Y616) | cell-free assay | 100 |
| STK32A (Homo sapiens, UniProt Q8WU08) | binding | 92 |
| MAP3K3 (Homo sapiens, UniProt Q99759) | cell-free assay | 100 |
| CDK5 (Homo sapiens, UniProt Q00535) | cell-free assay | 81 |
| CSF1R (Homo sapiens, UniProt P07333) | cell-free assay | 100 |
| MAPK12 (Homo sapiens, UniProt P53778) | cell-free assay | 100 |
| PIP5K1C (Homo sapiens, UniProt O60331) | cell-free assay | 100 |

Set 3 — observed: enzyme activity; action: inhibitor; concentration: 10 µM
Target: Calcium/calmodulin-dependent protein kinase type II subunit alpha (CAMK2A, Homo sapiens, UniProt Q9UQM7)
Sequence of UniProt Q9UQM7 (whole entry, looked up): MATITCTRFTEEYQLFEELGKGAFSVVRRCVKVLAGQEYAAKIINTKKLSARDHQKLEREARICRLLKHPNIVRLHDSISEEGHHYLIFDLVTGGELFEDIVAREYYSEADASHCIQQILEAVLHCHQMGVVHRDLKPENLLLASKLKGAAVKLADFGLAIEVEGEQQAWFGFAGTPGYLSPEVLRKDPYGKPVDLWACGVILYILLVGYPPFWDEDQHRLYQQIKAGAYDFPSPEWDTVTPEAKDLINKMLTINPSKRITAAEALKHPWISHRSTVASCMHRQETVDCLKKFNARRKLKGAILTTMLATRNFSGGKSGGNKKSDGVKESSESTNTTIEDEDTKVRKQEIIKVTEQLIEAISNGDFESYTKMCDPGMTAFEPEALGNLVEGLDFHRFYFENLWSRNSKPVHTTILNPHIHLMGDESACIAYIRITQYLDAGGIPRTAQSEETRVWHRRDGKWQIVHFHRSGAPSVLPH
| Compound | inhibition [%] |
| --- | --- |
| COC(=O)C1=CC[C@@]23CC[C@@H]([C@@](C)(/C=C/C=C(\C)C(=O)O)OC2=O)[C@@]3(O)CC1 | -22 |
| CC(C)NC[C@@H](O)COc1ccc(CC(N)=O)cc1 | 10 |
| Nc1ccccc1S(=O)(=O)O | 1 |
| Oc1c(Br)cc(Br)c2cccnc12 | -9 |
| C=C1C(=O)O[C@H]2C[C@@H](C)[C@@H]3[C@@H](OC(C)=O)C[C@H](O)[C@@]3(C)[C@@H](OC(C)=O)[C@H]12 | -14 |
| C[C@@H]1O[C@@H](OC[C@H]2O[C@@H](Oc3cc(O)c4c(c3)O[C@H](c3ccc(O)cc3)CC4=O)[C@H](O)[C@@H](O)[C@@H]2O)[C@H](O)[C@H](O)[C@H]1O | -28 |

Set 4 — observed: enzyme activity; action: inhibitor; concentration: 0.5 µM; relative to: control
SMILES: Cc1cc(Nc2cc(N3CCN(C)CC3)nc(Sc3ccc(NC(=O)C4CC4)cc3)n2)[nH]n1
| target | remaining activity |
| --- | --- |
| Cyclin-dependent kinase 1, with cyclin A (CDK1, Homo sapiens, UniProt P06493) | 99.1% |
| Myosin-IIIb (MYO3B, Homo sapiens, UniProt Q8WXR4) | 92.8% |
| MAPK11 (Homo sapiens, UniProt Q15759) | 93.5% |
| CLK4 (Homo sapiens, UniProt Q9HAZ1) | 90% |
| MAPK1 (Homo sapiens, UniProt P28482) | 91.2% |
| RPS6KA4 (Homo sapiens, UniProt O75676) | 100% |
| CDC42BPB (Homo sapiens, UniProt Q9Y5S2) | 101% |
| NEK3 (Homo sapiens, UniProt P51956) | 95% |
| PLK3 (Homo sapiens, UniProt Q9H4B4) | 98.8% |
| KDR (Homo sapiens, UniProt P35968) | 85.3% |
| MAP2K1 (Homo sapiens, UniProt Q02750) | 89.7% |
| PNCK (Homo sapiens, UniProt Q6P2M8) | 99% |
| DDR2 (Homo sapiens, UniProt Q16832) | 61.9% |
| ROCK1 (Homo sapiens, UniProt Q13464) | 110% |
| MET (Homo sapiens, UniProt P08581) | 70.9% |
| TXK (Homo sapiens, UniProt P42681) | 78.8% |
| CLK3 (Homo sapiens, UniProt P49761) | 110% |
| MARK4 (Homo sapiens, UniProt Q96L34) | 87.4% |
| TLK2 (Homo sapiens, UniProt Q86UE8) | 86.6% |
| PRKG2 (Homo sapiens, UniProt Q13237) | 105% |
| Cyclin-dependent kinase 9, with cyclin K (CDK9, Homo sapiens, UniProt P50750) | 102% |
| MAPK14 (Homo sapiens, UniProt Q16539) | 97.2% |
| DCLK2 (Homo sapiens, UniProt Q8N568) | 99.2% |
| AKT2 (Homo sapiens, UniProt P31751) | 103% |
| CAMK4 (Homo sapiens, UniProt Q16566) | 93.9% |
